Experimental data from different studies.
Compare with care: the assays were run in different laboratories. Several values in a cell are separate wells, animals, samples, runs or records.

COc1cc2c(NC3CCN(C(C)C)CC3)cc(N3CCOCC3)nc2cc1OCCCN1CCCC1  normalised protein abundance (TMT quantitative proteomics, measured: MDH1 (cytoplasmic); 5xFAD mice, hippocampus; dose not given): -0.0392 and -0.0298 and -0.0812 and -0.0306 and -0.0689 and -0.0778 and -0.0297 and -0.0309
C=CC(=O)N1[C@H](c2ccc3c(c2)OCO3)c2[nH]c3ccccc3c2C[C@@H]1C(=O)N1CCN(C)CC1  relative co-enrichment (human cyclin E1 N112C-3xFLAG:CDK2; co-IP with TMT proteomics, measured: SNRPD3; concentration not given, P62318; baseline: wild type DMSO): 129%
COC1CN([C@H]2CC[C@H]([C@@]3(C)Oc4c(Cl)cc(C(=O)NCc5c(SC)cc(C)[nH]c5=O)c(C)c4O3)CC2)C1  log2 fold change (RNA-seq, measured: FZD3 mouse homolog; mouse, HT-1376 xenograft, whole blood; dose not given; baseline: vehicle): 2.04
C=CC(=O)Nc1cccc(Cn2ncc3cnc(Nc4cnn(CCOC)c4)nc32)c1  percent of control (MAP4K2 human; binding, KINOMEscan; 100 nM; lower = stronger binding): 48%
Nc1ncc(-c2cc(-c3cnn(CC(F)(F)F)c3)ncc2F)nc1C(=O)NC1CNCC(F)C1 (stereo not shown)  remaining binding (SGK2; KINOMEscan; 1 µM; baseline: DMSO control): 100%
c1ccc(-c2n[nH]cc2-c2ccnc3ccccc23)nc1  log2 fold change (BUB1 (Candida albicans); kinase binding, MIB/MS competition; Candida albicans lysate; 1 µM; baseline: DMSO): 0.05
COc1ccccc1-c1ccncc1C(=O)Nc1nnc(OCc2ccc(Cl)cc2)s1  colony survival (MDA-MB-231; 6 µM, single replicate; baseline: untreated): 77.8% and 97.1%
Cc1ncsc1-c1ccc(C(C)NC(=O)C2CC(O)CN2C(=O)C(NC(=O)CCCCCCCCCCN2CCCC(Nc3ncc(Cl)c(Nc4ccccc4S(=O)(=O)C(C)C)n3)C2)C(C)(C)C)cc1 (stereo not shown)  log2 fold change (22Rv1; RNA-seq, measured: ZNF641 mRNA; concentration not given; baseline: DMSO): -1.07
CCN(CC)CC(=O)Nc1cccc(-n2cc(-c3ccc4ccc(-c5cn(-c6cccc(NC(=O)CN(CC)CC)c6)nn5)cc4c3)nn2)c1  fold regulation (RCC4; PCR angiogenesis array, measured: TIMP1; 5 x IC50, 2 h, normoxia; baseline: untreated): 1.03 fold
CNS(=O)(=O)Nc1nccc(Cc2c(C)c3ccc(Oc4ncccc4F)cc3oc2=O)c1F  IC50 (A-427; cell viability; 7 days): > 1 µM

Some of these lines once more:
Cc1ncsc1-c1ccc(C(C)NC(=O)C2CC(O)CN2C(=O)C(NC(=O)CCCCCCCCCCN2CCCC(Nc3ncc(Cl)c(Nc4ccccc4S(=O)(=O)C(C)C)n3)C2)C(C)(C)C)cc1 (stereo not shown)  log2 fold change (22Rv1; RNA-seq, measured: ZNF641 mRNA; concentration not given; baseline: DMSO): -1.07
